Published values gathered from unrelated publications.
Protocols differ between the studies behind these lines. Several values in a cell are separate wells, animals, samples, runs or records. ± gives the spread as reported. ≈ marks a conversion by molar mass, not a printed value.
Organism: Staphylococcus aureus

| Structure (SMILES) | test | system | conditions | how to read | endpoint | value |
| --- | --- | --- | --- | --- | --- | --- |
| CCCCCCCCCC(=O)OCCSCCC(=O)N[C@H](CCN)C(=O)N[C@@H](CCN)C(=O)N[C@@H](CCN)C(=O)N[C@@H](CC(C)C)C(=O)N[C@H](Cc1ccccc1)C(=O)N[C@@H](CCN)C(=O)N[C@@H](CCN)C(=O)N[C@@H](CC(C)C)C(N)=O |  | ATCC 6538 | 24 h, 37 °C |  | MBC | 8 µM (≈ 9.42 µg/mL) |
| CC1CCN(C(=O)c2cccc(NC(=O)Nc3ccc([N+](=O)[O-])cc3)c2)CC1 | checkerboard | CRB, PBP4 overexpressor | 25 µM, together with: ceftobiprole | baseline: ceftobiprole alone over combination | MIC fold reduction | > 16 |
| N=C(N)NCCC[C@H](NC(=O)[C@H](CCCNC(=N)N)NC(=O)[C@H](CCCNC(=N)N)NC(=O)[C@H](CCC(N)=O)NC(=O)[C@H](CCCNC(=N)N)NC(=O)[C@H](CCCNC(=N)N)NC(=O)[C@H](CCCCN)NC(=O)[C@H](CCCCN)NC(=O)[C@H](CCCNC(=N)N)NC(=O)CNC(=O)[C@H](Cc1ccc(O)cc1)NC(=O)[C@H](Cc1ccccc1)NC(=O)[C@H](Cc1ccccc1)NC(=O)[C@H](Cc1ccccc1)NC(=O)OCC1c2ccccc2-c2ccccc21)C(=O)O |  | 29213, C57BL/6 mouse peritonitis-sepsis, serum | 10 mg/kg, 48 h | baseline: control | IL-1β, IL-6, TNF-α | decreased |
| CC1COC2=C1C(=O)C(=O)c1c2ccc2c1C(OC(=O)CNC(=O)C(N)CCC(=O)O)CCC2(C)C (mixture of isomers) |  |  | 10 µmol/mL, 48 h, 10 µL on 6 mm disc |  | inhibition zone diameter | 23.7 ± 1 mm |
| CC(C)C[C@H](NC(=O)[C@H](CC(C)C)NC(=O)[C@H](CCCCN)NC(=O)[C@H](Cc1ccccc1)NC(=O)[C@@H](NC(=O)[C@H](CCCNC(=N)N)NC(=O)[C@@H](N)CCCCN)C(C)C)C(=O)N[C@@H](CCCCN)C(=O)N[C@@H](CCCNC(=N)N)C(=O)N[C@@H](Cc1ccc(O)cc1)C(=O)N[C@@H](Cc1c[nH]c2ccccc12)C(=O)N[C@@H](CCCNC(=N)N)C(=O)N[C@@H](CCC(N)=O)C(=O)N[C@@H](CC(C)C)C(=O)N[C@@H](CCCCN)C(=O)N[C@@H](CCCCN)C(=O)N1CCC[C@H]1C(=O)N[C@H](C(=O)N[C@@H](CCCNC(=N)N)C(=O)NCCOCCOCC(=O)O)C(C)C | DCFH-DA fluorescence |  | concentration not given | baseline: untreated | ROS level | 10 to 12 fold |
| CC[C@H](C)[C@@H]1NC(=O)[C@@H](CCCNC(=N)N)NC(=O)[C@@H](NC(=O)[C@@H](CC(C)C)NC(=O)[C@H](C)NC(=O)[C@H](C)NC(=O)[C@@H]2CCCN2C(=O)[C@@H](CC(C)C)NC(=O)[C@@H](NC(=O)[C@@H](CCCNC(=N)N)NC(=O)[C@@H](CC(C)C)NC(=O)[C@@H](CC(C)C)NC(=O)[C@@H](NC(=O)[C@@H](CCCNC(=N)N)NC(=O)[C@@H](CC(C)C)NC(=O)[C@@H](NC(=O)[C@@H](NC(=O)CNC(=O)[C@@H](CC(C)C)NC(=O)[C@@H](N)Cc2ccccc2)[C@@H](C)O)C(C)C)C(C)C)C(C)C)CSSC[C@@H](C(=O)O)NC(=O)[C@@H](CCCNC(=N)N)NC(=O)[C@@H](CCCNC(=N)N)NC(=O)[C@H](Cc2ccccc2)NC1=O |  | MRSA NCTC 12493, Galleria mellonella larvae | 16 mg/kg, planktonic infection |  | survival rate | 20% |
| Cc1ccc2nc(C)c(C(=O)C(=O)N(C)C)n2c1 | microbial growth | SG511 | 2 mM, 20 h |  | inhibition zone | 0 mm |
| C[C@@H](N)[C@H](O)CCCCCCCC(=O)CCCCCCCCCCCCCC[C@@H](O[C@@H]1O[C@H](CO)[C@H](O)[C@H](O)[C@H]1O)[C@H](N)CO | microbial growth, resazurin | ATCC12600 | 50 µM |  | inhibition | 98% |
| CCc1ccn2c(C(=O)NCc3ccccc3)c(C)nc2c1 | microbial growth | SG511 | 2 mM, 20 h |  | inhibition zone | 0 mm |
| CC(C)[C@H]1NC(=O)[C@H](Cc2ccccc2)NC(=O)[C@@H](C(C)C)NC(=O)[C@@H](C)NC(=O)[C@H](CO)NC(=O)[C@@H](Cc2c(-c3ccc(-c4ccc5ccccc5c4)cc3)[nH]c3ccccc23)NC(=O)[C@@H](CO)NC1=O | broth dilution |  |  |  | MIC90 | > 50 µM |
| CC[C@H](C)[C@@H]1NC(=O)[C@H](CO)NC(=O)[C@H](CCCCN)NC(=O)[C@@H]2CSSC[C@@H](C(=O)N[C@@H](Cc3ccc(O)cc3)C(N)=O)NC(=O)[C@H](CCCCN)NC(=O)[C@@H]3CSSC[C@H](NC(=O)[C@H](CCCNC(=N)N)NC(=O)[C@H](CC(C)C)NC(=O)[C@H](CC(=O)O)NC(=O)[C@H](CC(=O)O)NC(=O)[C@H](CCC(=O)O)NC(=O)[C@H](CC(N)=O)NC(=O)[C@H](Cc4c[nH]c5ccccc45)NC(=O)C(C)(CC)NC(=O)CNC(=O)[C@H](CC(N)=O)NC(=O)[C@@H](NC(=O)CNC(=O)[C@H](Cc4ccccc4)NC(=O)CN)CSSC[C@H](NC(=O)[C@H](Cc4ccc(O)cc4)NC(=O)CNC(=O)CNC(=O)[C@H](CCCCN)NC(=O)[C@H](Cc4ccc(O)cc4)NC(=O)[C@H]4CCCN4C(=O)[C@@H]4CCCN4C1=O)C(=O)N[C@@H](C)C(=O)N[C@@H](CCCCN)C(=O)N1CCC[C@@H]1C(=O)NCC(=O)N[C@@H](Cc1ccccc1)C(=O)N[C@@H](C(C)C)C(=O)N3)C(=O)N[C@@H](Cc1c[nH]cn1)C(=O)N[C@@H](CC(N)=O)C(=O)N[C@@H](Cc1c[nH]cn1)C(=O)N2 (some centres unmarked) |  | 473 | 24 h, 37 °C, 99.9% killing |  | MBC | 2 µM (≈ 8.92 µg/mL) |
| CCCNC(=O)[C@H](Cc1ccc(O)cc1)NC(=O)[C@H](Cc1ccc(O)cc1)NC(=O)[C@H](NC(=O)[C@H](NC(=O)[C@H](CC(N)=O)NC(=O)[C@@H](Cc1ccc(O)cc1)NC(=O)[C@@H](CC(C)C)NC)c1ccccc1)c1ccc(O)cc1 | bacterial growth |  |  |  | IC50 | > 40 µM |
| CC[C@H](C)[C@H](N)C(=O)N[C@@H](CC(N)=O)C(=O)N[C@H]1CCSC(=O)[C@H](CC(C)C)NC(=O)[C@H](CC(C)C)NC(=O)[C@H](Cc2ccccc2)NC(=O)[C@H](CC(=O)O)NC1=O | reporter gene, activator, β-lactamase reporter | agr reporter cells, CA3-III | 80 min |  | EC50 | > 10 µM |
| O=c1n(CCNCCOS(=O)(=O)c2ccccc2)c(=O)n(S(=O)(=O)c2ccccc2)c(=O)n1S(=O)(=O)c1ccccc1 | broth microdilution |  |  |  | MLC | 8 ± 2 µg/mL |
| CC(C)C[C@H](NC(=O)[C@H](CCN)NC(=O)[C@H](CCN)NC(=O)[C@@H](Cc1ccccc1)NC(=O)[C@H](CC(C)C)NC(=O)[C@H](CCN)NC(=O)[C@H](CCN)NC(=O)[C@@H](CCN)NC(=O)CCS)C(N)=O |  | ATCC 6538 | 24 h, 37 °C |  | MBC | 64 µM (≈ 62.7 µg/mL) |
| CC1=C[C@@H](C)[C@H]2[C@@H]3C(=O)C(Cl)(Cl)C(=O)[C@H](C)C(=O)O[C@@H](C)/C=C/C=C\[C@@H](C)[C@@H]3C=C[C@@H]2C1 |  | Newman compound-resistant mutant Mt6, broth-selected | concentration not given | baseline: parent strain | MIC fold change | 8 |
| COc1cc(OC)cc(B(O)O)c1 | crystal violet | USA300 wild type | 100 µM | baseline: wild type untreated | biofilm formation | 31.1% and 30.3% and 27.4% |
| O=c1c(O)ccc(Br)cc1O | microbial growth, broth dilution | ATCC29213 |  |  | MIC80 | 17.6 µM (≈ 3.82 µg/mL) |
| CC[C@H](C)[C@@H]1NC(=O)[C@H](CO)NC(=O)[C@H](CCCCN)NC(=O)[C@@H]2CSSC[C@@H](C(=O)N[C@@H](Cc3ccc(O)cc3)C(N)=O)NC(=O)[C@H](CCCCN)NC(=O)[C@@H]3CSSC[C@H](NC(=O)[C@H](CCCNC(=N)N)NC(=O)[C@H](CC(C)C)NC(=O)[C@H](CC(=O)O)NC(=O)[C@H](CC(=O)O)NC(=O)[C@H](CCC(=O)O)NC(=O)[C@H](CC(N)=O)NC(=O)[C@H](Cc4c[nH]c5ccccc45)NC(=O)[C@@H]4CCCN4C(=O)CNC(=O)[C@H](CC(N)=O)NC(=O)[C@@H](NC(=O)CNC(=O)[C@H](Cc4ccccc4)NC(=O)CN)CSSC[C@H](NC(=O)[C@H](Cc4ccc(O)cc4)NC(=O)CNC(=O)CNC(=O)[C@H](CCCCN)NC(=O)[C@H](Cc4ccc(O)cc4)NC(=O)CNC(=O)[C@H](CCCCN)NC1=O)C(=O)N[C@@H](C)C(=O)N[C@@H](CCCCN)C(=O)NCC(=O)NCC(=O)N[C@@H](Cc1ccccc1)C(=O)N[C@@H](C(C)C)C(=O)N3)C(=O)N[C@@H](Cc1c[nH]cn1)C(=O)N[C@@H](CC(N)=O)C(=O)N[C@@H](Cc1c[nH]cn1)C(=O)N2 |  | 473 | 24 h, 37 °C, 99.9% killing |  | MBC | 0.5 µM (≈ 2.21 µg/mL) |
| CC(C)[C@H]1NC(=O)[C@H](Cc2ccccc2)NC(=O)[C@@H](C(C)C)NC(=O)[C@@H](C)NC(=O)[C@H](CO)NC(=O)[C@@H](Cc2c(-c3ccc(-c4ccc5ccccc5c4)cc3)[nH]c3ccccc23)NC(=O)[C@@H](C)NC1=O | broth dilution |  |  |  | MIC90 | > 50 µM |

A few entries again:
| Structure (SMILES) | test | system | conditions | how to read | endpoint | value |
| --- | --- | --- | --- | --- | --- | --- |
| N=C(N)NCCC[C@H](NC(=O)[C@H](CCCNC(=N)N)NC(=O)[C@H](CCCNC(=N)N)NC(=O)[C@H](CCC(N)=O)NC(=O)[C@H](CCCNC(=N)N)NC(=O)[C@H](CCCNC(=N)N)NC(=O)[C@H](CCCCN)NC(=O)[C@H](CCCCN)NC(=O)[C@H](CCCNC(=N)N)NC(=O)CNC(=O)[C@H](Cc1ccc(O)cc1)NC(=O)[C@H](Cc1ccccc1)NC(=O)[C@H](Cc1ccccc1)NC(=O)[C@H](Cc1ccccc1)NC(=O)OCC1c2ccccc2-c2ccccc21)C(=O)O |  | 29213, C57BL/6 mouse peritonitis-sepsis, serum | 10 mg/kg, 48 h | baseline: control | IL-1β, IL-6, TNF-α | decreased |
| CC1COC2=C1C(=O)C(=O)c1c2ccc2c1C(OC(=O)CNC(=O)C(N)CCC(=O)O)CCC2(C)C (mixture of isomers) |  |  | 10 µmol/mL, 48 h, 10 µL on 6 mm disc |  | inhibition zone diameter | 23.7 ± 1 mm |
| CC(C)C[C@H](NC(=O)[C@H](CC(C)C)NC(=O)[C@H](CCCCN)NC(=O)[C@H](Cc1ccccc1)NC(=O)[C@@H](NC(=O)[C@H](CCCNC(=N)N)NC(=O)[C@@H](N)CCCCN)C(C)C)C(=O)N[C@@H](CCCCN)C(=O)N[C@@H](CCCNC(=N)N)C(=O)N[C@@H](Cc1ccc(O)cc1)C(=O)N[C@@H](Cc1c[nH]c2ccccc12)C(=O)N[C@@H](CCCNC(=N)N)C(=O)N[C@@H](CCC(N)=O)C(=O)N[C@@H](CC(C)C)C(=O)N[C@@H](CCCCN)C(=O)N[C@@H](CCCCN)C(=O)N1CCC[C@H]1C(=O)N[C@H](C(=O)N[C@@H](CCCNC(=N)N)C(=O)NCCOCCOCC(=O)O)C(C)C | DCFH-DA fluorescence |  | concentration not given | baseline: untreated | ROS level | 10 to 12 fold |
